Experimental data from different studies.
Lines come from different studies, so protocols differ.
USP51: Ubiquitin carboxyl-terminal hydrolase 51 (USP51, Homo sapiens, UniProt Q70EK9)
Sequence of UniProt Q70EK9 (whole entry, looked up): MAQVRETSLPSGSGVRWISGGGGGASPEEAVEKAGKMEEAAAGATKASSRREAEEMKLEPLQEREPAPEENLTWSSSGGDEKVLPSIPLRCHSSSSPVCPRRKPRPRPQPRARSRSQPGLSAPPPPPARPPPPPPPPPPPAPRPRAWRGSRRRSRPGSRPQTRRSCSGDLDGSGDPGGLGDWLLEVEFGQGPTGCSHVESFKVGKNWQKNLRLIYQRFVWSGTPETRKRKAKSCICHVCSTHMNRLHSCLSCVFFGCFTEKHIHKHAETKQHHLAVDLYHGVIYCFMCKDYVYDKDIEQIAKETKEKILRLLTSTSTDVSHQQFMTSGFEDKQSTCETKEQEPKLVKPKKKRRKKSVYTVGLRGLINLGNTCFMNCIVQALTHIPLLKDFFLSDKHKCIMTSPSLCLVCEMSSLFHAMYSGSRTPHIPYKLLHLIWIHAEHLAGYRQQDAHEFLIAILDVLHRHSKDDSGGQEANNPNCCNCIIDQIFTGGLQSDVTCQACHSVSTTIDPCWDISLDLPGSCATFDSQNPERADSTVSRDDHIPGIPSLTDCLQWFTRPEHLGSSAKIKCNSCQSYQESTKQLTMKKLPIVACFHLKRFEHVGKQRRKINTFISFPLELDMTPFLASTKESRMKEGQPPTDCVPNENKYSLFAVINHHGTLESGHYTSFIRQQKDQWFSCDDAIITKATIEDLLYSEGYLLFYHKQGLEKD
HDAC1: Histone deacetylase 1 (HDAC1, Homo sapiens, UniProt Q13547)
Sequence of UniProt Q13547 (whole entry, looked up): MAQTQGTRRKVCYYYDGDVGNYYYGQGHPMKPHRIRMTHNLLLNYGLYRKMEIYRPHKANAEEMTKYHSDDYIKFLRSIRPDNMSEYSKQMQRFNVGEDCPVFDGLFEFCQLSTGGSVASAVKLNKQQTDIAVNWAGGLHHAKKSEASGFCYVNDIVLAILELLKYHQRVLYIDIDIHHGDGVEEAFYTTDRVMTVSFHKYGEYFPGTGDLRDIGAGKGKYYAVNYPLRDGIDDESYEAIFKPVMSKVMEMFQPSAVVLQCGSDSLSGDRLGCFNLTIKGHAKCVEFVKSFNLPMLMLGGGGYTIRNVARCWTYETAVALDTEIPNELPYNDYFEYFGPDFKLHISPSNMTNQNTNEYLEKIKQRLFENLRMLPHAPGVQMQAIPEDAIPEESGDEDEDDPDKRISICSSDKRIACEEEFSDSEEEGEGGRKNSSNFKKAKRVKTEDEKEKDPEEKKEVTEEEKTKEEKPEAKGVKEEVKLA
PTGS2: Prostaglandin G/H synthase 2 (PTGS2, Homo sapiens, UniProt P35354)
Sequence of UniProt P35354 (whole entry, looked up): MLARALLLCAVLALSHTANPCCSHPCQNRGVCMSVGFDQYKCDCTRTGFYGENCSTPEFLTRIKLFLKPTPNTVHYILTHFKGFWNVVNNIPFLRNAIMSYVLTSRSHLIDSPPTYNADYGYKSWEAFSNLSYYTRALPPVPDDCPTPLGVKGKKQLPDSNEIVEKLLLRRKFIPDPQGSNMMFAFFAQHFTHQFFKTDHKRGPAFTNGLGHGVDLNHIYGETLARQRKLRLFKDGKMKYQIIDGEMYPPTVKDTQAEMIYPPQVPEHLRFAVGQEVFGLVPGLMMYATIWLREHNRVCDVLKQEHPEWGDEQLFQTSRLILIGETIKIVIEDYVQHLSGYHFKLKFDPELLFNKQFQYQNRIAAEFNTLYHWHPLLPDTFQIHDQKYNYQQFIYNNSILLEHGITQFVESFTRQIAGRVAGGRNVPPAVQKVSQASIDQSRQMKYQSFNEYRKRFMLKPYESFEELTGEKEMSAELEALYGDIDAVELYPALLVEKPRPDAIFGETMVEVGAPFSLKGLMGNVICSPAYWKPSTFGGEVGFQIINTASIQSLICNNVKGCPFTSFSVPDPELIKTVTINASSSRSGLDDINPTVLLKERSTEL
SIRT6: NAD-dependent protein deacylase sirtuin-6 (SIRT6, Homo sapiens, UniProt Q8N6T7)
Sequence of UniProt Q8N6T7 (whole entry, looked up): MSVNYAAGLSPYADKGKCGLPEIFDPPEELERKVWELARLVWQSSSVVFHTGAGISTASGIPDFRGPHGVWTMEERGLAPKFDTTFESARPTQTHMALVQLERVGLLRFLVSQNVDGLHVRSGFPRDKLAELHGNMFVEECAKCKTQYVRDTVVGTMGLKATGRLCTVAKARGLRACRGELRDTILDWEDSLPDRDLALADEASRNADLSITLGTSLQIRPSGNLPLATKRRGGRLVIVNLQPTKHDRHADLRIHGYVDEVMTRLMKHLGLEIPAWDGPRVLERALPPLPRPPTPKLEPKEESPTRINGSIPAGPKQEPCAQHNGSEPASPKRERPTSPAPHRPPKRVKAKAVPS
PDE10A: cAMP and cAMP-inhibited cGMP 3',5'-cyclic phosphodiesterase 10A (PDE10A, Homo sapiens, UniProt Q9Y233)
Sequence of UniProt Q00535 (whole entry, looked up): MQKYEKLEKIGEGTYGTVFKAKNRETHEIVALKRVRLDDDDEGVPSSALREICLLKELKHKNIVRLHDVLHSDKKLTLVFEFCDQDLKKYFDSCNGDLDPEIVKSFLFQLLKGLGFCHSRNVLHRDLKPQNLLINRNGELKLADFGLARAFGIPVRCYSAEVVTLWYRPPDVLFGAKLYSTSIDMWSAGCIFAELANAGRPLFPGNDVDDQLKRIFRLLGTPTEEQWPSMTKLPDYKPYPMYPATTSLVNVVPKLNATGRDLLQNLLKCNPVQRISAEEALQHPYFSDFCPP
Sequence of UniProt Q9Y233 (whole entry, looked up): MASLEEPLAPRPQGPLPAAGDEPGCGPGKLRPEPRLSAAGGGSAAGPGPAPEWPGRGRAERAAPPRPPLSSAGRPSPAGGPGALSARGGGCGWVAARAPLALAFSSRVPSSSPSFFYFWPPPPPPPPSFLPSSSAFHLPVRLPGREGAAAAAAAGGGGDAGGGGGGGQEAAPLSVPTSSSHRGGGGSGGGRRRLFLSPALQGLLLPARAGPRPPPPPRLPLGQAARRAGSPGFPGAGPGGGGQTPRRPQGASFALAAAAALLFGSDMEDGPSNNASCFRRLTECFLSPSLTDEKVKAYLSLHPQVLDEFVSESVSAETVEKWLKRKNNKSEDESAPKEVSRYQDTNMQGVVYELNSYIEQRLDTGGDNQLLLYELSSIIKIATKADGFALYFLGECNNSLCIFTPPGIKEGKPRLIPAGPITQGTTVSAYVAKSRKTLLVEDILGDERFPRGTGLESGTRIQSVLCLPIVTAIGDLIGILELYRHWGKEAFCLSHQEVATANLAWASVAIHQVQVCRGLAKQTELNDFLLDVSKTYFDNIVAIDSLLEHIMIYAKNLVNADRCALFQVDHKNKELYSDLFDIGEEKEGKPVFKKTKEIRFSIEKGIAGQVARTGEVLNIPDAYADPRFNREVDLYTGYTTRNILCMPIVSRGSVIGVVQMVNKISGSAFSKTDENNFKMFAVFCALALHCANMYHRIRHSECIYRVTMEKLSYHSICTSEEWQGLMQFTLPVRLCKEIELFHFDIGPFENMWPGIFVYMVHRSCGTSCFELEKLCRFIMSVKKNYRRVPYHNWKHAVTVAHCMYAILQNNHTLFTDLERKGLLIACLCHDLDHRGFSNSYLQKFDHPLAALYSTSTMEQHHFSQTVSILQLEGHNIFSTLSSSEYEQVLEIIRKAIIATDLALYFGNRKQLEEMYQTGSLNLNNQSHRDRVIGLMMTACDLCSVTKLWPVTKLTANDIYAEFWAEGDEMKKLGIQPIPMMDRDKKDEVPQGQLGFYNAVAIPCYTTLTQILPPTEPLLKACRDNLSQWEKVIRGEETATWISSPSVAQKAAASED
Sequence of UniProt Q96S44 (whole entry, looked up): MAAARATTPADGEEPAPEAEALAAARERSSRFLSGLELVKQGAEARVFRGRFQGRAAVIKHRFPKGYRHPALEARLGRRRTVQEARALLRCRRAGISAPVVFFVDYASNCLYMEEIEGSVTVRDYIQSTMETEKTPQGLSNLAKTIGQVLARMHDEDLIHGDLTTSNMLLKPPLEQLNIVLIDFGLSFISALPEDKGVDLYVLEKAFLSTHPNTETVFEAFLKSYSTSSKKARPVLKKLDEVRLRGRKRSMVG
Sequence of UniProt Q13976 (whole entry, looked up): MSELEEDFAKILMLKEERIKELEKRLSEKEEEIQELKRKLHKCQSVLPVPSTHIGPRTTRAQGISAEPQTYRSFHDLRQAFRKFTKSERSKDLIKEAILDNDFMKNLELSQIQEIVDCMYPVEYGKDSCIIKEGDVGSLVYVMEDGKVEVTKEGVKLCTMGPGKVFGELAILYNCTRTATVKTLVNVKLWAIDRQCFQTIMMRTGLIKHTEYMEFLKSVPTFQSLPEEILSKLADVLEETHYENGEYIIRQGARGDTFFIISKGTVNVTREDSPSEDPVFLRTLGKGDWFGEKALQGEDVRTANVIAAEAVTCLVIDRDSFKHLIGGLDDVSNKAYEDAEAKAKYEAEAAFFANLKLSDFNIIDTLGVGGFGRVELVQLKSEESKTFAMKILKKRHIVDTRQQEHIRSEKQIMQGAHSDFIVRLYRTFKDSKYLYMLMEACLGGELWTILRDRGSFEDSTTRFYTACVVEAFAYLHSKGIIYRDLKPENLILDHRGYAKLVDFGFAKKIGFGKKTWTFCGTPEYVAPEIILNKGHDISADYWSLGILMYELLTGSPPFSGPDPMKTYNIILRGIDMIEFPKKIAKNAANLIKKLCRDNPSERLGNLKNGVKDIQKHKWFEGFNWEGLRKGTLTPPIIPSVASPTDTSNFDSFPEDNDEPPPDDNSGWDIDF
Sequence of UniProt Q13153 (whole entry, looked up): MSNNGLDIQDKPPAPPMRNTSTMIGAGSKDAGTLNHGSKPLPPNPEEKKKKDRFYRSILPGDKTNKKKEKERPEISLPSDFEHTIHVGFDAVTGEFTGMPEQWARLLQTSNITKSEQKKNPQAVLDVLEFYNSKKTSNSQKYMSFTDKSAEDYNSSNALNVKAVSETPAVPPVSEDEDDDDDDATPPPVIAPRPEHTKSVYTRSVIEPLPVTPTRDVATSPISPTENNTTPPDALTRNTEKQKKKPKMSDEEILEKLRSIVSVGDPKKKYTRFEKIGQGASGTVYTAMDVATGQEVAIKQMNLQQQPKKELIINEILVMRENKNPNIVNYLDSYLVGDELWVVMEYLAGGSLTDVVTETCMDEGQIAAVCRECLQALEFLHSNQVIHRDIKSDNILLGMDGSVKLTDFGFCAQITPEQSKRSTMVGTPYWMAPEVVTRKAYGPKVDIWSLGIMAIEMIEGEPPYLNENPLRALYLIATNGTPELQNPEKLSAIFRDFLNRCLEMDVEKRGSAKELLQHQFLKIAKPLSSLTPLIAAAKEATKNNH

SMILES	target or system	test	system	conditions	endpoint	result
CC[C@H](C)[C@H](NC(=O)[C@H](CCC(N)=O)NC(=O)[C@H](CC(C)C)NC(=O)[C@H](CCSC)NC(=O)[C@H](CCCCN)NC(=O)[C@H](CO)NC(=O)[C@H](CO)NC(=O)[C@H](CCSC)NC(=O)[C@H](CC(C)C)NC(=O)[C@H](CC(N)=O)NC(=O)[C@@H](NC(=O)[C@@H](NC(=O)[C@H](CO)NC(=O)[C@H](CC(C)C)NC(=O)[C@H](CS)NC(=O)[C@H](CCCNC(=N)N)NC(=O)[C@H](CC(=O)O)NC(=O)[C@H](Cc1c[nH]c2ccccc12)NC(=O)[C@H](Cc1ccccc1)NC(=O)[C@H](C)NC(=O)[C@H](CCC(=O)O)NC(=O)[C@@H](N)CCCCN)C(C)C)[C@@H](C)CC)C(=O)N[C@@H](CC(N)=O)C(=O)N[C@@H](C)C(=O)O	Cyclin-dependent kinase 5, with p35 (CDK5, Homo sapiens, UniProt Q00535)	enzyme activity, inhibitor, radiometric	–	10 µM	inhibition	2%
O=c1ccc2ccc(O)c(O)c2o1	USP51	enzyme activity, inhibitor	–	5 µM	inhibition	93%
Cc1cc(OS(=O)(=O)Oc2ccc(Oc3ccccc3)cc2)cc(C(=O)NO)c1	HDAC1	enzyme activity, inhibitor, fluorescence	–	10 µM	inhibition	6%
CCCCC(=O)Nc1ccc(-c2ccc3ncn(CCC)c(=O)c3c2)cn1	Tyrosine-protein kinase ABL1, phosphorylated (ABL1, Homo sapiens, UniProt P00519, H396P)	binding, competition with immobilised ligand	–	0.5 µM	remaining binding	91%
COc1cc([C@H]2OC[C@H]3[C@@H]2CO[C@@H]3c2cc(OC)c(O)c(OC)c2)cc(OC)c1O	PTGS2	enzyme activity, inhibitor	–	3.9 µg/mL	inhibition	75.3%
NC/C(=C\F)COc1cccc(Cn2c(=S)[nH]c(=O)c3[nH]cnc32)c1	Platelet-activating factor receptor (PTAFR, Homo sapiens, UniProt P25105)	ligand displacement, radioligand	–	10 µM	inhibition	< 50%
Cc1cc(OS(=O)(=O)Oc2ccc(C(C)C)cc2)cc(C(=O)NO)c1	HDAC1	enzyme activity, inhibitor, fluorescence	–	5 µM	inhibition	7%
O=c1nc(N2CCN(CC3CCCCC3)CC2)sc2c([N+](=O)[O-])cc(C(F)(F)F)cc12	–	–	CD-1 mouse, plasma	intravenous, 10 mg/kg, 4.98 min	concentration	15600 ng/mL
Cc1ccc(CONC(=O)c2ccc(C(N)=O)cc2)cc1	SIRT6	enzyme activity, inhibitor, fluorescence	–	100 µM	inhibition	78.3%
S=C(NCc1ccc(Cl)cc1)NN=Cc1ccc(N2CCCCC2)cc1	Dihydrofolate reductase (DHFR, Homo sapiens, UniProt P00374)	enzyme activity, inhibitor	–	500 µM	inhibition	88.9%
CN1CC(Oc2cnc(C#N)cc2-c2ccn3nc(NC(=O)C4CC4)cc3c2)C1	Serine/threonine-protein kinase PAK 1 (PAK1, Homo sapiens, UniProt Q13153)	enzyme activity, inhibitor	–	1 µM	inhibition	4%
O=C(Nc1ccccc1)Nc1ccc(Oc2nnc(-c3ccc(Cl)cc3)c3ccccc23)cc1	MCF7	cell growth or viability, MTT	–	5 µM	cell death	96.8%
COc1cccc(OC)c1-c1cc(C(=O)NC2(C(=O)O)C3CC4CC(C3)CC2C4)nn1-c1ccc(C(=O)N(C)CCCN(C)CCCN(C)C(=O)CN2CCN(CC(=O)[O-])CCN(CC(=O)[O-])CCN(CC(=O)[O-])CC2)cc1C(C)C.[177Lu+3] (stereo not drawn)	HT-29 tumour model	–	host not given, blood	24 h, tumour-bearing	tracer uptake	0.05 %ID/g
NCC(=O)O	USP51	enzyme activity, inhibitor	–	5 µM	inhibition	0%
Cc1noc(NS(=O)(=O)c2ccc(N=NN(C)O)cc2)c1C	–	ABTS scavenging	–	20 µg/mL	inhibition	23.2%
C[C@@]12C[C@@]3(O)O[C@@H](O1)[C@]1(COC(=O)c4ccccc4)[C@H]3C[C@@]12O[C@@H]1O[C@H](CO)[C@@H](O)[C@H](O)[C@H]1O	USP51	enzyme activity, inhibitor	–	5 µM	inhibition	61%
O=C(O)c1ccc(C(=O)NOCc2ccccc2)cc1	SIRT6	enzyme activity, inhibitor, fluorescence	–	100 µM	inhibition	2.1%
COc1ccc(Cc2nccc3ccc(C4COC4)cc23)cc1OC	PDE10A	enzyme activity, inhibitor, FP	–	0.1 µM	inhibition	4%
O=C(NO)c1cc(F)cc(OS(=O)(=O)Oc2ccc(-n3ccnc3)cc2)c1	HDAC1	enzyme activity, inhibitor, fluorescence	–	5 µM	inhibition	39%
COc1ccc(-c2cc(=O)c3c(O)cc(O[C@@H]4O[C@H](CO)[C@@H](O)[C@H](O)[C@H]4O)cc3o2)cc1O	PTGS2	enzyme activity, inhibitor	–	15.63 µg/mL	inhibition	100%
CC(C)(C)c1ccc(OS(=O)(=O)Oc2cccc(C(=O)NO)c2)cc1	Protein deacetylase HDAC6 (HDAC6, Homo sapiens, UniProt Q9UBN7)	enzyme activity, inhibitor, fluorescence	–	10 µM	inhibition	30%
Cc1cc([C@@H](C)Nc2ccccc2C(=O)O)c2nc(N3CCC(F)(F)CC3)c(C#N)c(=O)n2c1	Inhibitor of nuclear factor kappa-B kinase subunit beta (IKBKB, Homo sapiens, UniProt O14920)	binding, competition with immobilised ligand	–	10 µM	remaining binding	90%
O[C@H]1[C@H](O)[C@@H](O)[C@H](O)[C@@H](O)[C@H]1O	USP51	enzyme activity, inhibitor	–	5 µM	inhibition	0%

SMILES	target or system	test	system	conditions	endpoint	result
CNc1ncc2c(/C=C/C(=O)N3CCC(OC)CC3)nn(Cc3cccc(C(F)(F)F)c3)c2n1	cGMP-dependent protein kinase 1 (PRKG1, Homo sapiens, UniProt Q13976)	enzyme activity, inhibitor, radiometric	–	1 µM	remaining activity	96%
Cc1cc(O)c(-c2ccc([C@@H](C)CN(C)C)cc2)c2c1[nH]c(=O)c1sccc12	EKC/KEOPS complex subunit TP53RK (TP53RK, Homo sapiens, UniProt Q96S44)	cell-free assay, inhibitor	–	0.1 µM, lysate	inhibition	5.18%
C=C1CC[C@@H]2[C@](C)(CO)[C@H](O)CC[C@@]2(C)[C@@H]1C/C=C1/C(=O)OC[C@H]1O	USP51	enzyme activity, inhibitor	–	5 µM	inhibition	20%
COc1cc(-c2cc(=O)c3c(O)cc(O)cc3o2)ccc1O	PTGS2	enzyme activity, inhibitor	–	31.25 µg/mL	inhibition	100%
CC(C)OCCn1c(=S)[nH]c(=O)c2[nH]ccc21	Myeloperoxidase (MPO, Homo sapiens, UniProt P05164)	enzyme activity, inhibitor, fluorescence	–	10 µM	inhibition	99.8%
COc1cc(-c2cncc3c2CN(C)Cc2cc(N4CCNCC4)ccc2-3)cc(OC)c1OC	Glycogen synthase kinase-3 alpha (GSK3A, Homo sapiens, UniProt P49840)	enzyme activity, inhibitor	–	1 µM	remaining activity	101%
Cc1cc(Oc2ncccc2CN2CCN(c3ncccc3C(F)(F)F)CC2)ccc1-c1c(C)c(=O)[nH]c(=O)n1C	Alpha-2C adrenergic receptor (ADRA2C, Homo sapiens, UniProt P18825)	ligand displacement, radioligand	–	–	Ki	7.4 nM
Cc1c(OS(=O)(=O)Oc2ccc(C(F)(F)F)cc2)cccc1C(=O)NO	Histone deacetylase 8 (HDAC8, Homo sapiens, UniProt Q9BY41)	enzyme activity, inhibitor, fluorescence	–	10 µM	inhibition	37%
Cn1c(=O)c2[nH]cnc2n(C)c1=O	Potassium voltage-gated channel subfamily A member 1 (KCNA1, Homo sapiens, UniProt Q09470)	ion current, inhibitor, patch clamp	–	30 µM	inhibition	10.2%
O=C(NO)c1cncc(OS(=O)(=O)Oc2ccc(C(F)(F)F)cc2)c1	Histone deacetylase 9 (HDAC9, Homo sapiens, UniProt Q9UKV0)	enzyme activity, inhibitor, fluorescence	–	10 µM	inhibition	31%
COc1cc2ncnc(Cc3ccc4cnn(C)c4c3)c2cc1OC	PDE10A	enzyme activity, inhibitor, FP	–	0.1 µM	inhibition	48%
Nc1ncnc2occ(-c3ccc(NC(=O)Nc4cc(C(F)(F)F)ccc4F)cc3)c12	Mitogen-activated protein kinase kinase kinase 13 (MAP3K13, Homo sapiens, UniProt O43283)	cell-free assay, inhibitor	–	20 µM	remaining signal	20%
O=c1cc(-c2ccc(O)c(O)c2)oc2cc(O)cc(O)c12	PTGS2	enzyme activity, inhibitor	–	0.24 µg/mL	inhibition	36.2%
O=C(NO)c1cccc(OS(=O)(=O)Oc2ccc(C(F)(F)F)cc2)c1	HDAC1	enzyme activity, inhibitor, fluorescence	–	10 µM	inhibition	47%
C=C[C@@]1(C)C=C2CC[C@@H]3[C@](C)(CCC[C@@]3(C)C(=O)O)[C@H]2CC1	PTGS2	enzyme activity, inhibitor	–	0.12 µg/mL	inhibition	0%
O=C(NO)c1cc(F)cc(OS(=O)(=O)Oc2ccccc2)c1	HDAC1	enzyme activity, inhibitor, fluorescence	–	5 µM	inhibition	14%
C=CC(=O)N1CCC(COCC(=O)N2CCN(c3nc(-c4cnc(N)nc4C(F)F)nc(N4CCOC[C@@H]4C)n3)CC2)CC1	Mitogen-activated protein kinase 1 (MAPK1, Homo sapiens, UniProt P28482)	binding, competition with immobilised ligand	–	1 µM	remaining binding	100%
CC(C)NCC(O)COc1cccc2ccccc12 (stereo not drawn)	Sodium channel protein type 1 subunit alpha (SCN1A, Homo sapiens, UniProt P35498)	ion current, inhibitor, patch clamp	–	30 µM	inhibition	52.8%
C1=C/COCc2cc(ccc2OCCN2CCCC2)Nc2nccc(n2)-c2cccc(c2)COC/1	Tyrosine-protein kinase Fes/Fps (FES, Homo sapiens, UniProt P07332)	binding	–	0.1 µM	remaining binding	100%
COC(=O)c1ccc(O)cc1	PTGS2	enzyme activity, inhibitor	–	0.24 µg/mL	inhibition	0%
COc1cc(/C=C/C(=O)CC(=O)/C=C/c2ccc(O)c(OC)c2)ccc1O	USP51	enzyme activity, inhibitor	–	5 µM	inhibition	0%
CC[C@H](C)[C@H](NC(=O)[C@H](CCC(N)=O)NC(=O)[C@@H](NC(=O)[C@H](CCSC)NC(=O)[C@H](CCCCN)NC(=O)[C@H](CO)NC(=O)[C@@H](NC(=O)[C@H](CCSC)NC(=O)[C@H](CC(C)C)NC(=O)[C@H](CC(N)=O)NC(=O)[C@@H](NC(=O)[C@@H](NC(=O)[C@H](CO)NC(=O)[C@H](CC(C)C)NC(=O)[C@H](C)NC(=O)[C@H](CCCNC(=N)N)NC(=O)[C@H](CCC(=O)O)NC(=O)[C@H](Cc1ccc(O)cc1)NC(=O)[C@H](Cc1ccccc1)NC(=O)[C@H](C)NC(=O)[C@H](CC(N)=O)NC(=O)[C@@H](N)CCCCN)[C@@H](C)CC)[C@@H](C)CC)[C@@H](C)O)C(C)C)C(=O)N[C@@H](CC(N)=O)C(=O)N[C@H](C(=O)O)C(C)C	Cyclin-dependent kinase 5, with p25 (CDK5, Homo sapiens, UniProt Q00535)	enzyme activity, inhibitor, radiometric	–	50 µM	inhibition	22%

For quick reference, copied from above:
SMILES	target or system	test	system	conditions	endpoint	result
O=c1nc(N2CCN(CC3CCCCC3)CC2)sc2c([N+](=O)[O-])cc(C(F)(F)F)cc12	–	–	CD-1 mouse, plasma	intravenous, 10 mg/kg, 4.98 min	concentration	15600 ng/mL
Cc1ccc(CONC(=O)c2ccc(C(N)=O)cc2)cc1	SIRT6	enzyme activity, inhibitor, fluorescence	–	100 µM	inhibition	78.3%
S=C(NCc1ccc(Cl)cc1)NN=Cc1ccc(N2CCCCC2)cc1	Dihydrofolate reductase (DHFR, Homo sapiens, UniProt P00374)	enzyme activity, inhibitor	–	500 µM	inhibition	88.9%
CN1CC(Oc2cnc(C#N)cc2-c2ccn3nc(NC(=O)C4CC4)cc3c2)C1	Serine/threonine-protein kinase PAK 1 (PAK1, Homo sapiens, UniProt Q13153)	enzyme activity, inhibitor	–	1 µM	inhibition	4%
O=C(Nc1ccccc1)Nc1ccc(Oc2nnc(-c3ccc(Cl)cc3)c3ccccc23)cc1	MCF7	cell growth or viability, MTT	–	5 µM	cell death	96.8%
COc1cccc(OC)c1-c1cc(C(=O)NC2(C(=O)O)C3CC4CC(C3)CC2C4)nn1-c1ccc(C(=O)N(C)CCCN(C)CCCN(C)C(=O)CN2CCN(CC(=O)[O-])CCN(CC(=O)[O-])CCN(CC(=O)[O-])CC2)cc1C(C)C.[177Lu+3] (stereo not drawn)	HT-29 tumour model	–	host not given, blood	24 h, tumour-bearing	tracer uptake	0.05 %ID/g
